Experimental data from different studies.
Numbered parts are unrelated; each lists some results of a single study. Substitutions count along the parent as printed.

Series 1 — target: CCNE2, cyclin fold, Cln2 fusion (human); technique: yeast growth competition, sequencing; sample: yeast; setting: strong parent motif; reference: not given; direction: higher = stronger binding; measurement: normalised enrichment score
Parent: BRCA2 docking peptide (human); PSIKRNLLNEFDR
PSIKRALLNEFDR [N6A]: -0.382
PSIKRNLLNEFDL [R13L]: 1.39
PSIKRNLLNHFDR [E10H]: 0.986
PSRKRNLLNEFDR [I3R]: 0.455
PSIKRNMLNEFDR [L7M]: 0.315
PSIKRNLLQEFDR [N9Q]: 1.52
PSIKRNLLNELDR [F11L]: 0.885
PSIKRNDLNEFDR [L7D]: -0.4
PSMKRNLLNEFDR [I3M]: 0.367
PSIKRNLPNEFDR [L8P]: 0.17
PSIKRNLCNEFDR [L8C]: 0.565
PSIKRSLLNEFDR [N6S]: 1.38
PSIKRNLLNEFDP [R13P]: 0.897
PSIKRNLLLEFDR [N9L]: 2.39
PSIKRNLLNYFDR [E10Y]: 1.31
PSWKRNLLNEFDR [I3W]: 3.01
PSIKFNLLNEFDR [R5F]: -0.772
PSIKRNLLNEFDN [R13N]: 1.16
PSIKRNLINEFDR [L8I]: 1.52
PSIKRNLLNEGDR [F11G]: 0.97
PSIKRNLLSEFDR [N9S]: 1.98
PSINRNLLNEFDR [K4N]: -0.214
PSIKRNLLNPFDR [E10P]: 1.01
PSIKRNLLAEFDR [N9A]: 2.32
PDIKRNLLNEFDR [S2D]: 0.831

Series 2 — technique: aptamer microarray, sandwich; form: DNA with 2'F-ANA; sample: in vitro; concentration: 200 nM; added: Cy3 exosite-II aptamer, 400 nM; direction: higher = stronger binding; measurement: mean fluorescence intensity; strand: GGTTGGTGTGGTTGG
Target: Prothrombin, mature alpha-thrombin (F2, Homo sapiens, UniProt P00734)
Setting: whole 15-mer aptamer, many near background
2'F-ANA at 2 3 7 9 10 12 13 14 15: 271 a.u.
2'F-ANA at 1 2 3 4 8 9 14: 72.2 a.u.
2'F-ANA at 1 2 3 4 6 8 12 14: 75.7 a.u.
2'F-ANA at 4 8 9 12 13 14: 90.3 a.u.
2'F-ANA at 2 3 4 6 7 8 14: 287 a.u.
2'F-ANA at 1 4 5 6 10 11 14: 50.6 a.u.
2'F-ANA at 2 4 9 10 13: 76.5 a.u.
2'F-ANA at 1 2 3 7 10 11 15: 64.3 a.u.
2'F-ANA at 1 4 5 6 8 11 12 13 14 15: 124 a.u.
2'F-ANA at 1 2 4 6 7 9: 112 a.u.
2'F-ANA at 2 7 9 11 12 15: 578 a.u.
2'F-ANA at 2 3 7 8 9 10 11 12 14: 271 a.u.
2'F-ANA at 6 7 8 9 11 13 14: 172 a.u.
2'F-ANA at 3 6 8 9 11 13 14: 465 a.u.
2'F-ANA at 1 3 9 11 13 14: 79.2 a.u.
2'F-ANA at 1 3 4 7 9 10 11 13 14 15: 52 a.u.
2'F-ANA at 6 7 9 11 14: 159 a.u.
2'F-ANA at 2 11 15: 380 a.u.
2'F-ANA at 3 6 7 8 10 12 13 14: 474 a.u.
2'F-ANA at 5 7 8 11 12 13 14 15: 67.5 a.u.
2'F-ANA at 2 3 7 8 11 15: 906 a.u.
2'F-ANA at 2 3 11 14 15: 370 a.u.
2'F-ANA at 1 4 6 7 8 10 11 15: 49.5 a.u.
2'F-ANA at 1 4 5 7 9 10 14: 47.5 a.u.
2'F-ANA at 2 3 4 5 7 11 14 15: 66.4 a.u.

Series 3 — technique: RNA Bind-n-Seq; form: RNA; sample: in vitro; concentration: 365 nM; reference: no-protein control; direction: higher = stronger binding; measurement: RBNS enrichment (R)
Target: RNA binding protein fox-1 homolog 2, RRM domain, GST-SBP tag (RBFOX2, Homo sapiens, UniProt O43251-10, residues 100-194)
Setting: natural RNA segment, single round, ends assumed
All sequences stand within: GGGAGUUCUACAGUCCGACGAUC … UGGAAUUCUCGGGUGCCAA
Target sequence (chain): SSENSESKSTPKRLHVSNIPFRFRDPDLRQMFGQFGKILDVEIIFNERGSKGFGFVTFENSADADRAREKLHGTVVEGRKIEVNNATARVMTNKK
CUAGCAUGCAGGAGGAUGCCAUCUGUUUCUUUGAGCCUUGUUAGAGAAGGUAAUGCUAGAGGAAGACUCAGUCACACAGAUAACAGGCAUUGGAAACAGCCGCACUAUGG: 19.1
UGUGAUUUCAGCAGUCAUGGUAUUCCAAGUGUGUGUGUGGAGGUAGAUAAGUGGGACGGUAAAGACAAAGGCGUGGAAGAGAAAGUCAGCGCUUCCUUCCUGGGAAGCCU: 0.451
GUUGCACUUGGUGGACCGUGCCUGGGAGCGCUCGCAUGCCCCCUGGCUUCAGAAGUCAUGUCAGUGUCUCUGUAGACAAACUCCACUGUACAUCUUGGAUUAAUCUUCUG: 0.495
AACAUAGGAAGCUUUACCUUGGGGAAGGUAUGCUUUACAAAUGUCCAGUGUAAUGAAUGUUUGGAAAAAACUGGAGUUACAGGAAAAUGAAAUCUGACUAUCUGCUAGUU: 1.74
GCUGGGGGUGAGGAGACAACAAACCUCGGGAACUGGAGCCAGAGCUGCGGCCUGACUGACGCCUUUUGAUGCUCACGGGAAAUUUCUGCCCAGGAUCUCAGCCCCAGGCU: 0.322
UUCAUCUUUGUAUUCUGAAGAUAAGGUUUGAAUUAAAUUGAUACACACAGAGGGGAACCGAUUUUUUUUAUCCAAUGUGAAUUAUAAAUGAGAUAAUCCACAGUUAUUCA: 1.29
GGGUCCUUUUCCUUCACCAGCAGUGGGAUAUUCGGAACAGAACCUCCUGCUUUCUGCCCAAGAGUGUGUGUAUGAGGUAAAUCUGUGGCAUAAUGUACCAUUGGCUCACA: 0.37
AGAAUAGGGACCGUGGGGUAUGGGGUGGGCAGUUAGAGGUUGGUCAUCCAGCAGUCAGAUGUGUCCUCGGUCCUCUGUGGCCCUCCGUUGCCGCCUGUGUGCUUUGCCCG: 0.653
ACUUCUUACAUUGUGGCAAGAAAAAAUGAGGAAGAAGCAAAAGCAGAAACCCCUGAUAAACUGAUCAGAUCUCAUGAGACUUAUUCACUGUCACGAGAAUAGCACGGGAA: 1.58
UCCUCCCUGUUAUUUCCAAGUAGCUGGGAUUUUAAACUAGAUGACCUCAUUAACCAGUGCUUUACCAAACAGCAAACCAAGAGAUUGCUAAUUGCUGUUGAAAGCAAAAA: 0.335
UUGGGAGUGAGGAUGUGUCCAUUUGGACCAAACACUUUGUUUUGUUUUAUUUAGAUUUUGUUUUUCAUCUUACUAUGUACCAGUGGCACUUAACCAAAAGAUACAGUAAC: 0.392
GGUGCUGACGCUGCCACUGCCCUGUUGUUCAUUGAGAAUGAUUGUUAAAUGACACUCUUCCUUUAGAAUAUAACGGAUCAGUACUCAUGUUUAAUUGCCAUGCUUAAUAA: 0.2

Series 4 — technique: protein-binding microarray; form: double-stranded DNA, one strand shown; sample: in vitro; concentration: 2540 nM top; setting: 60-bp whole probe; added: salmon DNA 0.4 mg/ml; reference: random background probes; direction: higher = stronger binding; measurement: fitted relative affinity; all sequences stand within: GCCTAGCAC … GTCTTGATTCGCTTGACGCTGCTG
Target: Interferon regulatory factor 3, full length, phosphomimetic (IRF3, Homo sapiens, UniProt Q14653, residues 1-427, S386D/S396D/S398D/S402D/T404D/S405D)
Residues (chain): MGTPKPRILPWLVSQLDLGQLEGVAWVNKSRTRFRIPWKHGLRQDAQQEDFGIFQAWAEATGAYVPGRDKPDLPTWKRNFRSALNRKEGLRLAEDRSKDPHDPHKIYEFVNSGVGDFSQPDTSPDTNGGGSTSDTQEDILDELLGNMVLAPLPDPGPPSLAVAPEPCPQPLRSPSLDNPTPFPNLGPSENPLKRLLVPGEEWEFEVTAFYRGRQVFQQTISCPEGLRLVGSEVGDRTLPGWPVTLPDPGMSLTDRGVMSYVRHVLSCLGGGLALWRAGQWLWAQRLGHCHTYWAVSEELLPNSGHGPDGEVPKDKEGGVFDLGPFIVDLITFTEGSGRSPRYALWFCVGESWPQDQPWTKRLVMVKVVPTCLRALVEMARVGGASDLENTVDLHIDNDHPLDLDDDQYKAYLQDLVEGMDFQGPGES
TTATGACTGGGTATCGGTTAGTGCTAG: 0.669 z-score
GACGGTATCGGGTATCGGTACGTGCTA: 2.43 z-score
TACGGTCTCCTTTTCCTGACGTGCTAG: 4.53 z-score
TTCTGGTTCCCATTCCAGGGGTGCTAG: 4.49 z-score
TTAGATTTCAGTTGCGATTAGTGCTAG: 1.61 z-score
TGCTCCTTCTGACATCAACCCGTGCTA: 1.33 z-score
GACGGACTGGGGTTCGGGACGTGCTAG: -0.723 z-score
TTAGATATCAGACTGGATTCGTGCTAG: 0.139 z-score
CAAGTTACGGAATTTCCCTCTGTGCTA: 1.64 z-score
GACGATATCAGTCTGGAGACGTGCTAG: 0.187 z-score
GTAGATATCGGGTATCGATTAGTGCTA: 0.394 z-score
TTAGGTATCGGTTACGGTTAGTGCTAG: 4.02 z-score
GACGGACAGCTTATCCTGACGTGCTAG: -0.292 z-score
TTAGGTTTCGACGTTCGGTTAGTGCTA: 1.79 z-score
TTAGGACTGGACTTTCGGTTGGTGCTA: 0.376 z-score
GACGGCCTCGGTATCGGGACGTGCTAG: -0.0918 z-score
TTAGATATCCGTATCGATTAGTGCTAG: 2.41 z-score
TCACTTTCCCCTTCCTAACTGTGCTAG: 5.33 z-score
TTAGGACTGCTTATCTTTTAGTGCTAG: -0.22 z-score
TCATCTCCCATTCTGAAACTGTGCTAG: 2.52 z-score
TCAAGTCTGGGCTACAACTTGGTGCTA: -0.621 z-score
TTAGGTATCCTTATCCATTAGTGCTAG: 5.61 z-score
GGCTTTTTTTTTTTTTTTTTGTGCTAG: 0.288 z-score
TTAGGTCTCCTTATCCTTAAGTGCTAG: 2.99 z-score
TTAGATTCCGGTTTCGATTAGTGCTAG: 5.63 z-score

A few entries again (series 3):
GUUGCACUUGGUGGACCGUGCCUGGGAGCGCUCGCAUGCCCCCUGGCUUCAGAAGUCAUGUCAGUGUCUCUGUAGACAAACUCCACUGUACAUCUUGGAUUAAUCUUCUG: 0.495
AACAUAGGAAGCUUUACCUUGGGGAAGGUAUGCUUUACAAAUGUCCAGUGUAAUGAAUGUUUGGAAAAAACUGGAGUUACAGGAAAAUGAAAUCUGACUAUCUGCUAGUU: 1.74
GCUGGGGGUGAGGAGACAACAAACCUCGGGAACUGGAGCCAGAGCUGCGGCCUGACUGACGCCUUUUGAUGCUCACGGGAAAUUUCUGCCCAGGAUCUCAGCCCCAGGCU: 0.322
UUCAUCUUUGUAUUCUGAAGAUAAGGUUUGAAUUAAAUUGAUACACACAGAGGGGAACCGAUUUUUUUUAUCCAAUGUGAAUUAUAAAUGAGAUAAUCCACAGUUAUUCA: 1.29
GGGUCCUUUUCCUUCACCAGCAGUGGGAUAUUCGGAACAGAACCUCCUGCUUUCUGCCCAAGAGUGUGUGUAUGAGGUAAAUCUGUGGCAUAAUGUACCAUUGGCUCACA: 0.37
AGAAUAGGGACCGUGGGGUAUGGGGUGGGCAGUUAGAGGUUGGUCAUCCAGCAGUCAGAUGUGUCCUCGGUCCUCUGUGGCCCUCCGUUGCCGCCUGUGUGCUUUGCCCG: 0.653
ACUUCUUACAUUGUGGCAAGAAAAAAUGAGGAAGAAGCAAAAGCAGAAACCCCUGAUAAACUGAUCAGAUCUCAUGAGACUUAUUCACUGUCACGAGAAUAGCACGGGAA: 1.58
UCCUCCCUGUUAUUUCCAAGUAGCUGGGAUUUUAAACUAGAUGACCUCAUUAACCAGUGCUUUACCAAACAGCAAACCAAGAGAUUGCUAAUUGCUGUUGAAAGCAAAAA: 0.335
UUGGGAGUGAGGAUGUGUCCAUUUGGACCAAACACUUUGUUUUGUUUUAUUUAGAUUUUGUUUUUCAUCUUACUAUGUACCAGUGGCACUUAACCAAAAGAUACAGUAAC: 0.392
GGUGCUGACGCUGCCACUGCCCUGUUGUUCAUUGAGAAUGAUUGUUAAAUGACACUCUUCCUUUAGAAUAUAACGGAUCAGUACUCAUGUUUAAUUGCCAUGCUUAAUAA: 0.2
